Experimental data of several laboratories.
± marks the error that the study gave.
Organism: Plasmodium falciparum

The EC50 of `O=C1C2=C(Nc3ccccc3SC2C2CCCCC2)c2ccccc21` (racemic) is reported as 0.022 µM (growth, [3H]hypoxanthine incorporation; Dd2).
For `CC(C)C[C@@H](NC(=O)[C@@H](C)NC(=O)[C@@H](CC(C)C)NC(=O)[C@@H](CCCCN)NC(=O)[C@H](N)CCCCN)C(=O)N[C@H](Cc1c[nH]cn1)C(=O)N[C@H](C)C(=O)N[C@H](CC(C)C)C(=O)N[C@H](CCCCN)C(=O)N[C@H](CCCCN)C(=O)N[C@H](Cc1c[nH]c2ccccc12)C(=O)N[C@H](CC(C)C)C(=O)N[C@H](Cc1c[nH]cn1)C(=O)N[C@H](C)C(=O)N[C@H](CC(C)C)C(=O)N[C@H](CCCCN)C(=O)N[C@H](CCCCN)C(=O)N[C@H](CC(C)C)C(=O)N[C@H](C)C(=O)N[C@H](Cc1c[nH]cn1)C(=O)N[C@H](CC(C)C)C(=O)N[C@H](C)C(=O)N[C@H](CC(C)C)C(=O)N[C@H](CCCCN)C(=O)N[C@H](CCCCN)C(N)=O`, the EC50 was 4.43 ± 0.33 µM (SYBR Green fluorescence; C10; 48 h, 37 °C).
`CCC12C=C(C(=O)OC)n3c(c(c4ccccc43)CCN(C=CC(=O)OC)CCC1)C2OC` (stereo not shown) gave an EC50 of 13.2 µM (parasite growth, SYBR Green; DD2; drug-resistant strain, blood stage).
For `CC(C)C[C@@H](NC(=O)[C@@H](C)NC(=O)[C@@H](CCCCN)NC(=O)[C@H](N)CCCCN)C(=O)N[C@H](C)C(=O)N[C@H](Cc1c[nH]cn1)C(=O)N[C@H](C)C(=O)N[C@H](CC(C)C)C(=O)N[C@H](CCCCN)C(=O)N[C@H](CCCCN)C(=O)N[C@H](Cc1c[nH]c2ccccc12)C(=O)N[C@H](CC(C)C)C(=O)N1CCC[C@@H]1C(=O)N[C@H](C)C(=O)N[C@H](CC(C)C)C(=O)N[C@H](CCCCN)C(=O)N[C@H](CCCCN)C(=O)N[C@H](CC(C)C)C(=O)N[C@H](C)C(=O)N[C@H](Cc1c[nH]cn1)C(=O)N[C@H](C)C(=O)N[C@H](CC(C)C)C(=O)N[C@H](C)C(=O)N[C@H](CCCCN)C(=O)N[C@H](CCCCN)C(N)=O`, the EC50 was 2.88 ± 0.25 µM (SYBR Green fluorescence; C10; 48 h, 37 °C).
`COc1ccccc1C1Sc2ccccc2NC2=C1C(=O)c1ccccc12` (racemic) gave an EC50 of over 5 µM (growth, [3H]hypoxanthine incorporation; Dd2).
The EC50 of `COC(=O)c1[nH]c(C(=O)OC)c2c1-c1c[nH]c3ccc(Cl)c(c13)C21CN(C)c2ccc(Cl)cc21` (racemic) is reported as 5.5 µM (parasite growth, SYBR Green; DD2; 72 h, drug-resistant strain, blood stage).
For `CCC(C)C1NC(=O)C(Cc2ccccc2)NC(=O)C(CCCCCC(=O)C2CO2)NC(=O)C2CCCCN2C1=O` (stereo not shown), the EC50 was 0.069 ± 0.003 µM (parasite growth, SYBR Green I; 3D7, drug-sensitive; 72 h).
`CC[C@]12CCCN3CC[C@]4(C(=O)c5ccccc5N4C(=O)C1)[C@@H]32` has an EC50 of 4.94 µM (parasite growth, SYBR Green; DD2; drug-resistant strain, blood stage).
With `CC(C)C1NC(=O)C(Cc2ccccc2)NC(=O)C(CCCCCC(=O)C2CO2)NC(=O)C2CCCCN2C1=O` (stereo not shown) the EC50 was 0.24 µM (parasite growth, SYBR Green; DD2; drug-resistant strain, blood stage).
For `CCC12CCCN(C=CC(=O)OC)CCc3c(n(c4ccccc34)CC1)C2Oc1ccccc1` (stereo not shown), the EC50 was 3.1 µM (parasite growth, SYBR Green; DD2; drug-resistant strain, blood stage).
`O=C1C2=C(Nc3ccccc3SC2c2ccc(O)c(O)c2)c2ccccc21` (racemic) has an EC50 of over 5 µM (growth, hypoxanthine uptake; Dd2 expressing yeast DHOD).
The EC50 of `COC(=O)c1[nH]c(C(=O)OC)c2c1-c1c[nH]c3ccc(Cl)c(c13)[C@]21C=Nc2ccc(Cl)cc21` is reported as 7.1 µM (parasite growth, SYBR Green; DD2; 72 h, drug-resistant strain, blood stage).
For `O=C1C2=C(Nc3ccccc3SC2c2ccc(F)cc2)c2ccccc21` (racemic), the EC50 was over 5 µM (growth, hypoxanthine uptake; Dd2 expressing yeast DHOD).
The EC50 of `CCC12C=C(C(=O)OC)n3c(c(c4ccccc43)CCN(C=CC(=O)OC)CCC1)C2OC(C)C` (stereo not shown) is reported as 3.77 µM (parasite growth, SYBR Green; DD2; drug-resistant strain, blood stage).
The EC50 of `CC(C)C[C@@H](NC(=O)[C@@H](C)NC(=O)[C@@H](CC(C)C)NC(=O)[C@@H](CCCCN)NC(=O)[C@H](N)CCCCN)C(=O)N[C@H](C)C(=O)N[C@H](CC(C)C)C(=O)N[C@H](C)C(=O)N[C@H](CCCCN)C(=O)N[C@H](CCCCN)C(=O)N[C@H](Cc1c[nH]c2ccccc12)C(=O)N[C@H](CC(C)C)C(=O)N[C@H](C)C(=O)N[C@H](CC(C)C)C(=O)N[C@H](C)C(=O)N[C@H](CCCCN)C(=O)N[C@H](CCCCN)C(=O)N[C@H](CC(C)C)C(=O)N[C@H](C)C(=O)N[C@H](CC(C)C)C(=O)N[C@H](C)C(=O)N[C@H](CC(C)C)C(=O)N[C@H](C)C(=O)N[C@H](CCCCN)C(=O)N[C@H](CCCCN)C(N)=O` is reported as 2.13 ± 0.14 µM (SYBR Green fluorescence; C10; 48 h, 37 °C).
For `COc1ccc(C2Sc3ccccc3NC3=C2C(=O)c2ccccc23)cc1` (racemic), the EC50 was over 5 µM (growth, hypoxanthine uptake; Dd2 expressing yeast DHOD).
`CC(C)C[C@@H](NC(=O)[C@@H](C)NC(=O)[C@@H](CC(C)C)NC(=O)[C@@H](CCCCN)NC(=O)[C@@H](CCCCN)NC(=O)[C@@H](CC(C)C)NC(=O)[C@@H](C)NC(=O)[C@H]1CCCN1C(=O)[C@@H](CC(C)C)NC(=O)[C@@H](Cc1c[nH]c2ccccc12)NC(=O)[C@@H](CCCCN)NC(=O)[C@@H](CCCCN)NC(=O)[C@@H](CC(C)C)NC(=O)[C@@H](C)NC(=O)[C@@H](CC(C)C)NC(=O)[C@@H](CC(C)C)NC(=O)[C@@H](C)NC(=O)[C@@H](CC(C)C)NC(=O)[C@@H](CCCCN)NC(=O)[C@H](N)CCCCN)C(=O)N[C@H](CC(C)C)C(=O)N[C@H](C)C(=O)N[C@H](CC(C)C)C(=O)N[C@H](CCCCN)C(=O)N[C@H](CCCCN)C(N)=O` gave an EC50 of 2.18 ± 0.41 µM (SYBR Green fluorescence; C10; 48 h, 37 °C).
For `CN(C)CCCOc1ccc(C2Sc3ccccc3NC3=C2C(=O)c2ccccc23)cc1` (racemic), the EC50 was 0.57 µM (growth, [3H]hypoxanthine incorporation; Dd2).
`CC(C)C[C@@H](NC(=O)[C@@H](C)NC(=O)[C@@H](CC(C)C)NC(=O)[C@@H](CCCCN)NC(=O)[C@@H](CCCCN)NC(=O)[C@@H](CC(C)C)NC(=O)[C@@H](C)NC(=O)[C@@H](CC(C)C)NC(=O)[C@@H](CC(C)C)NC(=O)[C@@H](Cc1c[nH]c2ccccc12)NC(=O)[C@@H](CCCCN)NC(=O)[C@@H](CCCCN)NC(=O)[C@@H](CC(C)C)NC(=O)[C@@H](C)NC(=O)[C@@H](CC(C)C)NC(=O)[C@@H](CC(C)C)NC(=O)[C@@H](C)NC(=O)[C@@H](CC(C)C)NC(=O)[C@@H](CCCCN)NC(=O)[C@H](N)CCCCN)C(=O)N[C@H](CC(C)C)C(=O)N[C@H](C)C(=O)N[C@H](CC(C)C)C(=O)N[C@H](CCCCN)C(=O)N[C@H](CCCCN)C(N)=O` has an EC50 of 1.95 ± 0.08 µM (SYBR Green fluorescence; 3D7; 48 h, 37 °C).
`O=C1C2=C(Nc3ccccc3SC2c2ccsc2)c2ccccc21` (racemic) has an EC50 of over 5 µM (growth, hypoxanthine uptake; Dd2 expressing yeast DHOD).
For `CC(C)C[C@@H](NC(=O)[C@H]1CCCN1C(=O)[C@@H](CC(C)C)NC(=O)[C@@H](Cc1c[nH]c2ccccc12)NC(=O)[C@@H](CCCCN)NC(=O)[C@@H](CCCCN)NC(=O)[C@@H](C)NC(=O)[C@@H](CC(C)C)NC(=O)[C@@H](C)NC(=O)[C@@H](CC(C)C)NC(=O)[C@@H](C)NC(=O)[C@@H](CC(C)C)NC(=O)[C@@H](CCCCN)NC(=O)[C@H](N)CCCCN)C(=O)N[C@H](C)C(=O)N[C@H](CCCCN)C(=O)N[C@H](CCCCN)C(=O)N[C@H](CC(C)C)C(=O)N[C@H](C)C(=O)N[C@H](CC(C)C)C(=O)N[C@H](C)C(=O)N[C@H](CC(C)C)C(=O)N[C@H](C)C(=O)N[C@H](CCCCN)C(=O)N[C@H](CCCCN)C(N)=O`, the EC50 was 0.88 ± 0.06 µM (SYBR Green fluorescence; 3D7; 48 h, 37 °C).
`CC[C@H](C)[C@H](NC(=O)[C@@H](NC(=O)[C@H](Cc1ccc(O)cc1)NC(=O)[C@H](CCCCN)NC(=O)[C@H](CCCCN)NC(=O)[C@H](CC(C)C)NC(=O)[C@H](CC(=O)O)NC(=O)[C@H](Cc1ccc(O)cc1)NC(=O)[C@H](CCC(N)=O)NC(=O)[C@H](CCCCN)NC(=O)[C@@H](NC(=O)[C@H](Cc1ccccc1)NC(=O)[C@H](CCCCN)NC(=O)[C@H](CCCCN)NC(=O)[C@H](Cc1c[nH]c2ccccc12)NC(=O)[C@H](CCCCN)NC(=O)[C@H](CCSC)NC(=O)[C@H](CCCNC(=N)N)NC(=O)[C@H](CCCNC(=N)N)NC(=O)[C@H](CC(N)=O)NC(=O)[C@H](CCC(N)=O)NC(=O)[C@H](Cc1ccccc1)NC(=O)[C@H](Cc1c[nH]c2ccccc12)NC(=O)[C@@H](NC(=O)[C@H](CCCCN)NC(=O)[C@@H](NC(=O)[C@H](CCC(N)=O)NC(=O)[C@@H](N)CCCNC(=N)N)[C@@H](C)CC)[C@@H](C)CC)[C@@H](C)CC)[C@@H](C)CC)C(=O)O` has an EC50 of about 50 µM (parasite growth; 3D7; 24 h, early trophozoite stage).

For quick reference, copied from above:
For `CC(C)C[C@@H](NC(=O)[C@@H](C)NC(=O)[C@@H](CCCCN)NC(=O)[C@H](N)CCCCN)C(=O)N[C@H](C)C(=O)N[C@H](Cc1c[nH]cn1)C(=O)N[C@H](C)C(=O)N[C@H](CC(C)C)C(=O)N[C@H](CCCCN)C(=O)N[C@H](CCCCN)C(=O)N[C@H](Cc1c[nH]c2ccccc12)C(=O)N[C@H](CC(C)C)C(=O)N1CCC[C@@H]1C(=O)N[C@H](C)C(=O)N[C@H](CC(C)C)C(=O)N[C@H](CCCCN)C(=O)N[C@H](CCCCN)C(=O)N[C@H](CC(C)C)C(=O)N[C@H](C)C(=O)N[C@H](Cc1c[nH]cn1)C(=O)N[C@H](C)C(=O)N[C@H](CC(C)C)C(=O)N[C@H](C)C(=O)N[C@H](CCCCN)C(=O)N[C@H](CCCCN)C(N)=O`, the EC50 was 2.88 ± 0.25 µM (SYBR Green fluorescence; C10; 48 h, 37 °C).
